{"data": "Results collected from several papers", "note": "A part holds a random share of what one study measured. “And” joins repeats or separate records; there may be more than shown.", "chain of UniProt Q16853 (whole entry, looked up)": "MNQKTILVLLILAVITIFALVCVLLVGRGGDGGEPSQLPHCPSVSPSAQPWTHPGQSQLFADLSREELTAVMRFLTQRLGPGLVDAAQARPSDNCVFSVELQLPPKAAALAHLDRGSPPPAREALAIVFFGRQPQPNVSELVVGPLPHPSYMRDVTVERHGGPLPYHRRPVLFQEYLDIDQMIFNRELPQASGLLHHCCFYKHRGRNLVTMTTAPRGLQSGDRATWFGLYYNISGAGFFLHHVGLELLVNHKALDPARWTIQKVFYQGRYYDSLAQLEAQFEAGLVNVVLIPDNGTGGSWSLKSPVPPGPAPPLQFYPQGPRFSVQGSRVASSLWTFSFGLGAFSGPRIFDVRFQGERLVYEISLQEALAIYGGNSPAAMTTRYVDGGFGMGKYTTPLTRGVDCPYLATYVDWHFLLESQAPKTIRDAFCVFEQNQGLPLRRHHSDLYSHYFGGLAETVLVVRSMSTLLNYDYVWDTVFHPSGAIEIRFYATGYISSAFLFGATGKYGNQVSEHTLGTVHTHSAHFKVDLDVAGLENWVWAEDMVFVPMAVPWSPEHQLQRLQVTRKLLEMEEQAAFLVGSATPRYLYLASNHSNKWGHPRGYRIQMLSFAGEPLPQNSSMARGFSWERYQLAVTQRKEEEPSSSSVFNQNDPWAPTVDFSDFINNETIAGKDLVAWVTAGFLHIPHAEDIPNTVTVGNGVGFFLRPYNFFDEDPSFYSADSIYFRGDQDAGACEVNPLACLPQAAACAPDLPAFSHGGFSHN"}
{"data": "Block 1", "Compound": "NC/C(=C\\F)COc1cccc(Cn2c(=S)[nH]c(=O)c3[nH]ccc32)c1", "effect on": "enzyme activity", "action": "inhibitor", "technique": "fluorescence", "MPO": "Myeloperoxidase (MPO, Homo sapiens, UniProt P05164)", "chain of UniProt P05164 (whole entry, looked up)": "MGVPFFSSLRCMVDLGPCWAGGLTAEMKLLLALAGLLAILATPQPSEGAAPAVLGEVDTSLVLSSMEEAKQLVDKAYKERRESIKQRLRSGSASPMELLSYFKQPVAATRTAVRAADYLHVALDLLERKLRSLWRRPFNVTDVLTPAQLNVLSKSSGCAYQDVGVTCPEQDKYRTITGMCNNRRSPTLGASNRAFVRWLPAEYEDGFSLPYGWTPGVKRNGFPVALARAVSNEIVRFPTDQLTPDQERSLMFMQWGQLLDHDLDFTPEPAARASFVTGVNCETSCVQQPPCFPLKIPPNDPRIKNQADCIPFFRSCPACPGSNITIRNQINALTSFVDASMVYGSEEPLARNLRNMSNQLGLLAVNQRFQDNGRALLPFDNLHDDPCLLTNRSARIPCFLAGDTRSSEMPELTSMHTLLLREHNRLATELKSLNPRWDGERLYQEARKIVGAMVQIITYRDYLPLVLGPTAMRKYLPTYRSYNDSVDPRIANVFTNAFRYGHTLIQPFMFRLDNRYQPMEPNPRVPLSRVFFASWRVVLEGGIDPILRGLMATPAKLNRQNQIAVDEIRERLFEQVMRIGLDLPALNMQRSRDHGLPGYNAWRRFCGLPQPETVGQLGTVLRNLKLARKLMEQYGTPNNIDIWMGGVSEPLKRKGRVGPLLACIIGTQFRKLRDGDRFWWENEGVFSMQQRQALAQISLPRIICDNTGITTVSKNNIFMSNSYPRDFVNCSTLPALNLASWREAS"}
{"target": "MPO", "setting": "1.5 nM", "inhibition": "15.3% and 11.2% and 7.12%"}
{"target": "MPO", "setting": "10 µM", "inhibition": "99.6% and 100%"}
{"target": "MPO", "setting": "41.2 nM", "inhibition": "79.4% and 78.2% and 80.1%"}
{"target": "MPO", "setting": "13.7 nM", "inhibition": "53.3% and 55.8% and 51.3%"}
{"target": "Amine oxidase [copper-containing] 3 (AOC3, Homo sapiens, UniProt Q16853)", "setting": "13.7 nM", "inhibition": "55.6% and 66.9% and 70.3% and 41.3% and 60.4% and 63%"}
{"target": "MPO", "setting": "800 pM", "inhibition": "-0.968% and 5.13% and 5.82%"}
{"data": "Further values, each from its own experiment", "PKMYT1": "Membrane-associated tyrosine- and threonine-specific cdc2-inhibitory kinase (PKMYT1, Homo sapiens, UniProt Q99640)", "chain of UniProt Q99640 (whole entry, looked up)": "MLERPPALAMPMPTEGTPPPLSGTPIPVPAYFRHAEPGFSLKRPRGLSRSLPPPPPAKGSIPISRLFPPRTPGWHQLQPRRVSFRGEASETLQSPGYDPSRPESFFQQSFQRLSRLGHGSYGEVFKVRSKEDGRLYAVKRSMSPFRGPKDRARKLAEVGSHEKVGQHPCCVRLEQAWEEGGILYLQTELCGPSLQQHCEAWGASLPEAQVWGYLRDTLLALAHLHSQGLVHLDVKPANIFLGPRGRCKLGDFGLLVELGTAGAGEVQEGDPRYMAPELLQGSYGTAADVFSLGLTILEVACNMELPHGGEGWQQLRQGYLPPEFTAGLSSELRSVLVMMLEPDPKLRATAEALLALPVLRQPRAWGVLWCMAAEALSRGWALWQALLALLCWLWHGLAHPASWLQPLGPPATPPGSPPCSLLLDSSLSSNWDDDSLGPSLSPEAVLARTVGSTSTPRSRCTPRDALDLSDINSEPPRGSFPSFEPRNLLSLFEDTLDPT"}
{"SMILES": "O=C(O)C1Oc2cc(F)ccc2N(Cc2ccccc2)C1=O (stereo not drawn)", "target or system": "Arabidopsis thaliana", "system": "Col-0", "setting": "100 µg/mL, seed germination, single repetition", "measurement": "hypocotyl length", "result": "1.53 cm and 1.54 cm and 1.51 cm and 1.59 cm"}
{"SMILES": "Cc1ccc(O)c(C)c1-c1cnc2[nH]c(-c3cnc(N4CCC(CN5CCC(c6ccc(NC7CCC(=O)NC7=O)cc6F)CC5)CC4)nc3)cc2c1C#N (stereo not drawn)", "target or system": "PKMYT1", "test": "cell-free assay, TR-FRET", "measurement": "IC50", "result": "5.2 nM"}
{"SMILES": "O=C(O)C1(O)Oc2cc(F)ccc2N(Cc2ccccc2)C1=O (stereo not drawn)", "target or system": "Arabidopsis thaliana", "system": "Col-0", "setting": "50 µg/mL, seed germination, repetition mean", "measurement": "hypocotyl length", "result": "0.104 cm"}
{"SMILES": "Cc1ccc(O)c(C)c1-c1cnc2[nH]c(-c3cnc(N4CCC(CN5CCN(c6ccc7c(c6)CN(C6CCC(=O)NC6=O)C7=O)CC5)CC4)nc3)cc2c1C#N (stereo not drawn)", "target or system": "PKMYT1", "test": "cell-free assay, TR-FRET", "measurement": "IC50", "result": "2.9 nM"}
{"SMILES": "CCN1C(=O)C(O)(C(=O)O)Oc2cc(F)ccc21 (stereo not drawn)", "target or system": "Arabidopsis thaliana", "system": "Col-0", "setting": "100 µg/mL, seed germination, repetition mean", "measurement": "hypocotyl length", "result": "1.24 cm"}
{"SMILES": "Cc1ccc(O)c(C)c1-c1cnc2[nH]c(-c3cnc(N4CCC(CN5CCN(c6ccc(NC7CCC(=O)NC7=O)cc6F)CC5)CC4)nc3)cc2c1C#N (stereo not drawn)", "system": "male cynomolgus monkey, plasma", "setting": "intravenous, 1 mg/kg", "measurement": "Vd", "result": "3.5 L/kg"}
{"SMILES": "O=C(O)C1(O)Oc2cc(Cl)ccc2N(Cc2ccccc2)C1=O (stereo not drawn)", "target or system": "Arabidopsis thaliana", "system": "Col-0", "setting": "12.5 µg/mL, seed germination, single repetition", "measurement": "hypocotyl length", "result": "2.02 cm and 1.99 cm and 2.01 cm and 1.96 cm"}
{"SMILES": "Cc1ccc(O)c(C)c1-c1cnc2[nH]c(-c3cnc(N4CCC5(CC4)CC(N4CCN(c6ccc(NC7CCC(=O)NC7=O)cc6F)CC4)CO5)nc3)cc2c1C#N (stereo not drawn)", "target or system": "PKMYT1", "system": "HuCCT-1", "setting": "37.04 nM", "measurement": "degradation", "result": "82.6%"}
{"SMILES": "Cc1nc(C)c(C=[N+]([O-])C(C)(C)C)nc1C", "test": "stereological counting", "system": "MPTP mouse model, substantia nigra", "setting": "90 mg/kg", "measurement": "TH-positive neuron count", "result": "7440 and 7260 and 8740 and 8090"}
{"note": "Repeated from above (block 1):"}
{"target": "MPO", "setting": "800 pM", "inhibition": "-0.968% and 5.13% and 5.82%"}
